Experimental data from different studies.
Each line is one published result; not all experiments were run side by side. Numbers after ± are the reported error.
OPRL1: Nociceptin receptor (OPRL1, Homo sapiens, UniProt P41146)
FPR1 N192K: fMet-Leu-Phe receptor (FPR1, Homo sapiens, UniProt P21462, N192K)
Oprm1: Mu-type opioid receptor (Oprm1, Rattus norvegicus, UniProt P33535)
OPRK1: Kappa-type opioid receptor (OPRK1, Homo sapiens, UniProt P41145)
OPRD1: Delta-type opioid receptor (OPRD1, Homo sapiens, UniProt P41143)

Protein sequences, listed by entry. Tags and fused reporters are not part of them. Residues count along the entry.
UniProt P41146, whole entry: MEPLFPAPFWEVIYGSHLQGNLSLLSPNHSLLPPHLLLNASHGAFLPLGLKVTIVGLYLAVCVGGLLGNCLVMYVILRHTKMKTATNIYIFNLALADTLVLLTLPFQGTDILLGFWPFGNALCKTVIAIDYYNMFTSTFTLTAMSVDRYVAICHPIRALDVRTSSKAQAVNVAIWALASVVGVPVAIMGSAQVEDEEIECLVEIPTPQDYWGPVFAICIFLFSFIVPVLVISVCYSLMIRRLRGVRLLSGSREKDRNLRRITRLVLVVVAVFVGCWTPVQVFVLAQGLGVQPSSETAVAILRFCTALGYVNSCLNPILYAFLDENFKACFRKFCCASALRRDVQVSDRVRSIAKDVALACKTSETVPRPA
UniProt P21462, whole entry N192K: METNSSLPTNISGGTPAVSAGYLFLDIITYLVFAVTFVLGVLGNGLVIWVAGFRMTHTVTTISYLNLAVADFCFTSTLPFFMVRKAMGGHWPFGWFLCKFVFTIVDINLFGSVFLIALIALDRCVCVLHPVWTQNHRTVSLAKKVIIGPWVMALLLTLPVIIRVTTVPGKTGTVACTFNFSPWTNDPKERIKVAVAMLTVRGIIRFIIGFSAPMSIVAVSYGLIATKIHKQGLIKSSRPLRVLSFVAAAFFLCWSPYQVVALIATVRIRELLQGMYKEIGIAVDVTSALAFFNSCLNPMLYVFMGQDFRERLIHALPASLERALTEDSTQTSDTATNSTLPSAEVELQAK
UniProt P33535, whole entry: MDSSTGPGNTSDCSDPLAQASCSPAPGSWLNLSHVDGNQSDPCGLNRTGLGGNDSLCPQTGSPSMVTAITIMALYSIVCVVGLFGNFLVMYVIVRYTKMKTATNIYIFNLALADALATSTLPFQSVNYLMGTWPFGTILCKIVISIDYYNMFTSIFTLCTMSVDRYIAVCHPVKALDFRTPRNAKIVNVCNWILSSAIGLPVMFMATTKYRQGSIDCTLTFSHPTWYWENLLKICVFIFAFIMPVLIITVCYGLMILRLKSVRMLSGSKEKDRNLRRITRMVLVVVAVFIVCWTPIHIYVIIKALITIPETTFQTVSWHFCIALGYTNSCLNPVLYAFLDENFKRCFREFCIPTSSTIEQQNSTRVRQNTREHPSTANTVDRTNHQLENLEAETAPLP
UniProt P41143, whole entry: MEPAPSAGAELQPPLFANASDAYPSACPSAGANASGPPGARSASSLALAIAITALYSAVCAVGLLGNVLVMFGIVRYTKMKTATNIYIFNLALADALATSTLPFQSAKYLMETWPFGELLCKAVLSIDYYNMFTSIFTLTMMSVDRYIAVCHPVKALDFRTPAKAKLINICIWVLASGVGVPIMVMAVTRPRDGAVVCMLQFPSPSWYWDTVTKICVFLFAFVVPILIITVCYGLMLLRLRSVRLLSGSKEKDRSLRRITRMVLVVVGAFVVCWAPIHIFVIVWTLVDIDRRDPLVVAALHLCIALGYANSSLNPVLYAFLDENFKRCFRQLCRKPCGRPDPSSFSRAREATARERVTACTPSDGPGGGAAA
UniProt P35372, whole entry: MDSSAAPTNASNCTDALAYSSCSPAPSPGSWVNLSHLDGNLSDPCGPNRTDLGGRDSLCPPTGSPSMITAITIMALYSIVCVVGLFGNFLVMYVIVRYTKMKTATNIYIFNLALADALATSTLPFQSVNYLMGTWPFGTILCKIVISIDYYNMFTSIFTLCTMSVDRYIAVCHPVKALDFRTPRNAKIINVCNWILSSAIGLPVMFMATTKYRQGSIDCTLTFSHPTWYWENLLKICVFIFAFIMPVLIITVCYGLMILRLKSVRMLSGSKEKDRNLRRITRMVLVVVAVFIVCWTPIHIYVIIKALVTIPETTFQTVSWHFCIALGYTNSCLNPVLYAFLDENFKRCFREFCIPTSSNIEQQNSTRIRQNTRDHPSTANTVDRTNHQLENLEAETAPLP
UniProt P30926, 22-498 limits assumed: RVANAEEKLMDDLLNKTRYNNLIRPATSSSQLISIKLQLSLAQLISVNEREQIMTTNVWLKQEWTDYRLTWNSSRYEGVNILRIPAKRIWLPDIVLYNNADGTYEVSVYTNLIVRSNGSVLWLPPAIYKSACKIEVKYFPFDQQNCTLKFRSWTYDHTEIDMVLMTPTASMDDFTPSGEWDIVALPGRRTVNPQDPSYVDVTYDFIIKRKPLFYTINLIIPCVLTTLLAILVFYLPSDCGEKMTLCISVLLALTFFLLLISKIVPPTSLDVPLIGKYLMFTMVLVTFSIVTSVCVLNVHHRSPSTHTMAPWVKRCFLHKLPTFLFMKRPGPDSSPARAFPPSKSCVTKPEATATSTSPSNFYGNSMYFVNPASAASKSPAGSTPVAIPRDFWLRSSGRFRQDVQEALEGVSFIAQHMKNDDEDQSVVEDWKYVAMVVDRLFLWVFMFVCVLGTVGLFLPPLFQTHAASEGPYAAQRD
UniProt P32297, 32-505 limits assumed: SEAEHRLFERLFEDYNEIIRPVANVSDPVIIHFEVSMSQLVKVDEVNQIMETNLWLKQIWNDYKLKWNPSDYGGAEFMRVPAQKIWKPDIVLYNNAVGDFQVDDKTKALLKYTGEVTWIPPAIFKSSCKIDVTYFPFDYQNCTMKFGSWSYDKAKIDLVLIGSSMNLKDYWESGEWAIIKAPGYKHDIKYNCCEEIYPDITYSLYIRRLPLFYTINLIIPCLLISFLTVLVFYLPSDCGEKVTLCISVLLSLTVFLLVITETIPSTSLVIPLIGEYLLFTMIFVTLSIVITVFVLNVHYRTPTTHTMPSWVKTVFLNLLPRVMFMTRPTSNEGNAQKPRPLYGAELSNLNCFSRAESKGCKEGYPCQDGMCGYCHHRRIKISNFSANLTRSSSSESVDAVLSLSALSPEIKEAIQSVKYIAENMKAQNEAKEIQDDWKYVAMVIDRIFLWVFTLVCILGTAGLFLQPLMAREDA
UniProt P71968, 1-258: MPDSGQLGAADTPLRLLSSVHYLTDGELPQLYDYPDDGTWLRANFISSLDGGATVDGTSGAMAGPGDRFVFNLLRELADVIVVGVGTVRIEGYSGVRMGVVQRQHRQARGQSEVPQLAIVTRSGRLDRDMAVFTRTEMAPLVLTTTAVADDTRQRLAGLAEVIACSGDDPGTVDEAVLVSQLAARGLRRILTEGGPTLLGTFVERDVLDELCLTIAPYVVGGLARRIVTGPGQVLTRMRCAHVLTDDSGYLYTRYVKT
UniProt A0ACM8Q262, 1-400: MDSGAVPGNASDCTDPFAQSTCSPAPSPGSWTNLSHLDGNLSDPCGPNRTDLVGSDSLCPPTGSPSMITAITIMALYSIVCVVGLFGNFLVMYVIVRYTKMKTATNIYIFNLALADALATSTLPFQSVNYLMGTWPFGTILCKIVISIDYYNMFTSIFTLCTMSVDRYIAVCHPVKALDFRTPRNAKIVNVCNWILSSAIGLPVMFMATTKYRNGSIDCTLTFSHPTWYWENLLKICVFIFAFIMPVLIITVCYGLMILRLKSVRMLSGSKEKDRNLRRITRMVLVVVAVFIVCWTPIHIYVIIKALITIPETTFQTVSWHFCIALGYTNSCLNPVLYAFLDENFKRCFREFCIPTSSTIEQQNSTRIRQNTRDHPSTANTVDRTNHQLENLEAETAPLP
UniProt Q9P1W9, whole entry: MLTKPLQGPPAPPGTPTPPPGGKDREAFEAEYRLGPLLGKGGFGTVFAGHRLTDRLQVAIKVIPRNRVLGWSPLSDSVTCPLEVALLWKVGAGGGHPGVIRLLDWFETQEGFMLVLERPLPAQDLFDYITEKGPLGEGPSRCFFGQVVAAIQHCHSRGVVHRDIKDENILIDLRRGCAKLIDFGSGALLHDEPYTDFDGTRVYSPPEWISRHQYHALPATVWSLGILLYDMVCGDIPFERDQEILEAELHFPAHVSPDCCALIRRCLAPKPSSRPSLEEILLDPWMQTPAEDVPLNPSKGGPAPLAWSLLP
UniProt P42685, whole entry: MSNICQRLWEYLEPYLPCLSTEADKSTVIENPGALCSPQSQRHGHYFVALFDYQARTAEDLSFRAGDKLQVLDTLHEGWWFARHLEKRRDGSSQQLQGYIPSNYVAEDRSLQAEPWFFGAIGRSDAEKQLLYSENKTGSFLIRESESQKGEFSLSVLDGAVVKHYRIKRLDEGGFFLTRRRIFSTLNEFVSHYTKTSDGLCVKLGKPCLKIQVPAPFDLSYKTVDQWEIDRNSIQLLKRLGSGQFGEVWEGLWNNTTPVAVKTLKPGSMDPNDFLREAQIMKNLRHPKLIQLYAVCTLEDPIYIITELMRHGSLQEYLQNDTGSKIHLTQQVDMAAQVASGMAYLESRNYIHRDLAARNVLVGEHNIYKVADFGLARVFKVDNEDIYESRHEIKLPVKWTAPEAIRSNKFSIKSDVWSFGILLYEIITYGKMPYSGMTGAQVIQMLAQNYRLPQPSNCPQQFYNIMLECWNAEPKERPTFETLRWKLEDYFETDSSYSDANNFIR
UniProt A0A4X1VEU5, 29-602 limits assumed: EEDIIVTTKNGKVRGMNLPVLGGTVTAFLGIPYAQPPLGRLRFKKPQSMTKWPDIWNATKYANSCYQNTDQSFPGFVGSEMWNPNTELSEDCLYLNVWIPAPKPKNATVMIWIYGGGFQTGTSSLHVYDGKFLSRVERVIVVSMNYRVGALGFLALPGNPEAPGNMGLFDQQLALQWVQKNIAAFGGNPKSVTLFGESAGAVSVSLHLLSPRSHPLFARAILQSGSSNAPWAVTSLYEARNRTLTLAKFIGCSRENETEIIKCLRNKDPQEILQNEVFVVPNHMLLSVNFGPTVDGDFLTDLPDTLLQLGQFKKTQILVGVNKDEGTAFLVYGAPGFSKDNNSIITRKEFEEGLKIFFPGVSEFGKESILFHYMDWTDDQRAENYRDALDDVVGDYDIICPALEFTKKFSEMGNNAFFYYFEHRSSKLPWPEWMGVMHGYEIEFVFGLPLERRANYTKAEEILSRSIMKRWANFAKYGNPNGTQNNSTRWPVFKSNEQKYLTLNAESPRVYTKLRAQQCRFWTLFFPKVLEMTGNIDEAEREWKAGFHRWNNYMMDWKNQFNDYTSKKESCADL
UniProt Q12809, whole entry: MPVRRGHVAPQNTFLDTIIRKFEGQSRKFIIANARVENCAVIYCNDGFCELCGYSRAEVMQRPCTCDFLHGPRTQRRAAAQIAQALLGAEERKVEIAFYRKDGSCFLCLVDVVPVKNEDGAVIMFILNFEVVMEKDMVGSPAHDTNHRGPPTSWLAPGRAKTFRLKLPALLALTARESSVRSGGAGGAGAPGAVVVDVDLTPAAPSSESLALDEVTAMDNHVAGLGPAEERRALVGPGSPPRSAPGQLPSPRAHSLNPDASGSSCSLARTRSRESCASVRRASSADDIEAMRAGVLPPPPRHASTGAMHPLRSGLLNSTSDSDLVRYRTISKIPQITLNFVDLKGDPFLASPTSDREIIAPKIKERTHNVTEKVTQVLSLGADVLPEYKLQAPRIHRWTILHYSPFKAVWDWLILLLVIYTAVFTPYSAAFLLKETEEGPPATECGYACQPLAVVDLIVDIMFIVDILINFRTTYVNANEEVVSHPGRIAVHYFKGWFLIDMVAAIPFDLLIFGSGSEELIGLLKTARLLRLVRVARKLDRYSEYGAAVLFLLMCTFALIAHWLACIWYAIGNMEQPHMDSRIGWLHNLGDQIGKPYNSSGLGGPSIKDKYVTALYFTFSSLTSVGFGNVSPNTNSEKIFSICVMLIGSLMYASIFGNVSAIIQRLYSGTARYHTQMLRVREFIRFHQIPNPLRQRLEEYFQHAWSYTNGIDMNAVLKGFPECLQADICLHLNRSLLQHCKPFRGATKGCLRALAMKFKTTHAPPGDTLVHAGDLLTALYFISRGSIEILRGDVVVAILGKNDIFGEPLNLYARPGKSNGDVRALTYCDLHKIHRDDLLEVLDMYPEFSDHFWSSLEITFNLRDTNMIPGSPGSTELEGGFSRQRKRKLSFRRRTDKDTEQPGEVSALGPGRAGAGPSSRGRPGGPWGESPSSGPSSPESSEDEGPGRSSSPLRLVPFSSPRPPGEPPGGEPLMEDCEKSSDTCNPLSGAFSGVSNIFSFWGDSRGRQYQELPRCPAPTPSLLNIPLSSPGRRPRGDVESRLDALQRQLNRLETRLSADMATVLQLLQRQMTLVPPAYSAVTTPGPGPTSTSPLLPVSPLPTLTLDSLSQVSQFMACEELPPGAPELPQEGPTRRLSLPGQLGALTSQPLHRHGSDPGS

The Ki of `CO[C@]12CC[C@@]3(C[C@@H]1[C@@H](O)c1ccccc1)[C@H]1Cc4ccc(O)c5c4[C@@]3(CCN1CC1CC1)[C@H]2O5` is reported as 0.82 ± 0.3 nM (OPRM1 (Homo sapiens, UniProt P35372); binding, radioligand displacement; CHO; together with: [3H]DAMGO).
With `O=C(C1CC1)N1CC2CC(C1)N2` the Ki was 270 ± 63 nM (Neuronal acetylcholine receptor; alpha3/beta4 (Homo sapiens, UniProt P30926+P32297); competition binding; CHO expressing human α3β4, cell membranes; together with: [3H]epibatidine).
`CCC(C)(C)[C@](C)(O)[C@H]1C[C@@]23CC[C@]1(OC)[C@@H]1Oc4c(O)ccc5c4[C@@]12CCN(CC1CC1)[C@@H]3C5` gave a Ki of 8.5 nM (OPRL1; radioligand binding; CHO; together with: [3H]N/OFQ).
For `CCc1nc(N)nc(N)c1C#C[C@@H](C)c1cc(OC)cc(-c2ccc(C(=O)O)cc2)c1`, the Ki was 80 ± 6.5 nM (Riboflavin biosynthesis protein RibD (Mycobacterium tuberculosis, UniProt P71968); inhibitor; together with: NADPH 50 µM).
For `CC[C@@](O)(c1ccccc1)[C@H]1C[C@@]23CC[C@]1(OC)[C@@H]1Oc4c(O)ccc5c4[C@@]12CCN(CC1CC1)[C@@H]3C5`, the Ki was 396 ± 41 nM (OPRL1; binding, radioligand displacement; CHO; together with: [3H]N/OFQ).
The Ki of `CO[C@]12CC[C@@]3(C[C@@H]1[C@@](C)(O)C(C)(C)C)[C@H]1Cc4c(Cl)cc(O)c5c4[C@@]3(CCN1CC1CC1)[C@H]2O5` is reported as 67.8 ± 20 nM (OPRL1; radioligand binding; CHO; together with: [3H]N/OFQ).
`CC[C@H](C)[C@H](NC(=O)[C@H](Cc1c[nH]c2ccccc12)NC(=O)[C@H](CCC(N)=O)NC(=O)[C@H](CCCNC(=N)N)NC(=O)[C@H](Cc1c[nH]c2ccccc12)NC(=O)CNC(=O)[C@@H](NC(=O)[C@H](Cc1c[nH]c2ccccc12)NC(=O)[C@H](Cc1c[nH]c2ccccc12)NC(=O)[C@H](CC(N)=O)NC(=O)[C@H](CC(=O)O)NC(=O)[C@@H](N)CC(N)=O)[C@@H](C)O)C(=O)O` gave a Ki of 1200 ± 90 nM (FPR1 N192K; binding, competition binding; 4 °C, together with: formyl-Nle-Leu-Phe-Nle-Tyr-Lys-FITC 0.3 nM).
For `COC(=O)[C@@H]1C[C@H](OC(C)=O)C(=O)[C@H]2[C@@]1(C)CC[C@H]1C(=O)O[C@H](c3ccoc3)C[C@]21C`, the Ki was > 1000 nM (Oprm1; radioligand binding; CHO membranes; together with: [3H]diprenorphine).
For `CO[C@]12CC[C@@]3(C[C@@H]1[C@@](C)(O)C(C)(C)C)[C@H]1Cc4cc(Br)c(O)c5c4[C@@]3(CCN1CC1CC1)[C@H]2O5`, the Ki was 159 ± 1.4 nM (OPRL1; radioligand binding; CHO; together with: [3H]N/OFQ).
For `CO[C@]12C=C[C@@]3(C[C@@H]1[C@@H](O)c1ccccc1)[C@H]1Cc4ccc(O)c5c4[C@@]3(CCN1CC1CC1)[C@H]2O5`, the Ki was 0.8 ± 0.5 nM (Mu-type opioid receptor (Cavia porcellus, UniProt A0ACM8Q262); binding, radioligand displacement; guinea pig brain membranes; together with: [3H]DAMGO).
For `CCN1CCN(Cc2ccc(NC(=O)c3ccc(C)c(/C=C/c4cnc5[nH]ccc5c4OC)c3)cc2C(F)(F)F)CC1`, “log2 fold change” read 0.39 (PIM2 (Homo sapiens, UniProt Q9P1W9); inhibitor; 5 µM; relative to: no inhibitor).
`CC[C@@](O)(c1ccccc1)[C@H]1C[C@@]23C=C[C@]1(OC)[C@@H]1Oc4c(O)ccc5c4[C@@]12CCN(CC1CC1)[C@@H]3C5` has a Ki of 0.95 ± 0.26 nM (OPRK1; binding, radioligand displacement; CHO; together with: [3H]U-69593).
`CC#C/C(=N\OC[C@H]1COCCN1)c1ccc2ncnc(Nc3ccc(OCc4cccc(F)c4)c(Cl)c3)c2c1` gave an inhibition of 9.2% (FRK (Homo sapiens, UniProt P42685); kinase activity; 10 µM).
For `CO[C@]12CC[C@@]3(C[C@@H]1[C@](C)(O)c1ccccc1)[C@H]1Cc4ccc(O)c5c4[C@@]3(CCN1CC1CC1)[C@H]2O5`, the Ki was 1.9 ± 0.33 nM (OPRD1; binding, radioligand displacement; CHO; together with: [3H]DPDPE).
With `CO[C@]12CC[C@@]3(C[C@@H]1[C@@](C)(O)c1ccc(C(C)(C)C)cc1)[C@H]1Cc4ccc(O)c5c4[C@@]3(CCN1CC1CC1)[C@H]2O5` the Ki was 3.03 ± 0.61 nM (OPRD1; radioligand binding; CHO; together with: [3H]Cl-DPDPE).
`CC[C@H](C)[C@H](NC(=O)[C@H](Cc1ccc(O)cc1)NC(=O)[C@H](CCC(N)=O)NC(=O)[C@@H](N)CCC(=O)O)C(=O)N[C@@H](CCCCN)C(=O)N[C@@H](Cc1c[nH]c2ccccc12)C(=O)N1CCC[C@H]1C(=O)N[C@@H](Cc1c[nH]c2ccccc12)C(=O)N[C@@H](Cc1ccc(O)cc1)C(=O)N[C@H](C(=O)N[C@@H](Cc1c[nH]c2ccccc12)C(=O)N[C@@H](CC(C)C)C(=O)O)C(C)C` gave a Ki of 2400 ± 170 nM (FPR1 N192K; binding, competition binding; 4 °C, together with: formyl-Nle-Leu-Phe-Nle-Tyr-Lys-FITC 0.3 nM).
With `CC[C@](O)([C@H]1C[C@@]23CC[C@]1(OC)[C@@H]1Oc4c(O)ccc5c4[C@@]12CCN(CC1CC1)[C@@H]3C5)C(C)(C)C` the Ki was 0.86 ± 0.02 nM (OPRD1; binding, radioligand displacement; CHO; together with: [3H]DPDPE).
`CO[C@]12CC[C@@]3(C[C@@H]1[C@](C)(O)CC(C)(C)c1ccccc1)[C@H]1Cc4ccc(O)c5c4[C@@]3(CCN1CC1CC1)[C@H]2O5` has a Ki of 22 ± 0.55 nM (OPRL1; radioligand binding; CHO; together with: [3H]N/OFQ).
`Nc1c2c(nc3ccccc13)CCCC2` gave a Ki of 0.43 ± 0.07 nM (Butyrylcholinesterase (Sus scrofa, UniProt A0A4X1VEU5); enzyme activity, inhibitor).
`CO[C@]12CC[C@@]3(C[C@@H]1[C@](C)(O)CC(C)(C)C)[C@H]1Cc4ccc(O)c5c4[C@@]3(CCN1CC1CC1)[C@H]2O5` has a Ki of 18.5 ± 0.68 nM (OPRL1; radioligand binding; CHO; together with: [3H]N/OFQ).
For `CC[C@H](C)[C@@H](CN1CCC(C)(c2cccc(F)c2)CC1)NC(=O)[C@H]1Cc2ccc(O)cc2CN1`, the Ki was 1670 nM (KCNH2 (Homo sapiens, UniProt Q12809); radioligand binding; hERG-expressing membranes; 60 min, pH 7.4, together with: [3H]astemizole).
`CO[C@]12CC[C@@]3(C[C@@H]1[C@@](C)(O)C(C)(C)C)[C@H]1Cc4c(Br)cc(O)c5c4[C@@]3(CCN1CC1CC1)[C@H]2O5` has a Ki of 6.79 ± 0.99 nM (OPRD1; radioligand binding; CHO; together with: [3H]Cl-DPDPE).
`CO[C@]12CC[C@@]3(C[C@@H]1[C@@](C)(O)c1ccncc1)[C@H]1Cc4ccc(O)c5c4[C@@]3(CCN1CC1CC1)[C@H]2O5` has a Ki of 0.16 ± 0.04 nM (Oprm1; binding, radioligand displacement; C6 rat glioma; together with: [3H]diprenorphine).
`COC(=O)[C@@H]1C[C@H](OC(=O)CSC#N)C(=O)[C@H]2[C@@]1(C)CC[C@H]1C(=O)O[C@H](c3ccoc3)C[C@]21C` gave a Ki of 0.59 ± 0.21 nM (OPRK1; radioligand competition; together with: [3H]U69593).

Some of these lines once more:
For `CCc1nc(N)nc(N)c1C#C[C@@H](C)c1cc(OC)cc(-c2ccc(C(=O)O)cc2)c1`, the Ki was 80 ± 6.5 nM (Riboflavin biosynthesis protein RibD (Mycobacterium tuberculosis, UniProt P71968); inhibitor; together with: NADPH 50 µM).
`CCC(C)(C)[C@](C)(O)[C@H]1C[C@@]23CC[C@]1(OC)[C@@H]1Oc4c(O)ccc5c4[C@@]12CCN(CC1CC1)[C@@H]3C5` gave a Ki of 8.5 nM (OPRL1; radioligand binding; CHO; together with: [3H]N/OFQ).
`CC#C/C(=N\OC[C@H]1COCCN1)c1ccc2ncnc(Nc3ccc(OCc4cccc(F)c4)c(Cl)c3)c2c1` gave an inhibition of 9.2% (FRK (Homo sapiens, UniProt P42685); kinase activity; 10 µM).
